{"data": "Published values of several laboratories", "note": "Compare with care: the assays were run in different laboratories. ± marks the error that the study gave."}
{"SMILES": "Nc1ncnc2c1c(Br)cn2[C@@H]1O[C@H](CO)[C@@H](O)[C@H]1O", "target or system": "Trypanosoma congolense", "test": "parasite growth, resazurin", "conditions": "72 h", "endpoint": "EC50", "value": "790 nM"}
{"SMILES": "COc1ccccc1-c1n[nH]c2nc(N[C@H]3CC[C@H](NS(=O)(=O)CC(C)C)CC3)ncc12", "target or system": "Leishmania donovani", "test system": "LdBOB CRK12 overexpressing, promastigotes", "endpoint": "EC50", "value": "0.24 ± 0.002 nM"}
{"SMILES": "Nc1ncnc2c1c(I)cn2[C@@H]1O[C@H](CO)C[C@H]1O", "target or system": "Trypanosoma congolense", "test": "parasite growth, resazurin", "test system": "6C3 diminazene-resistant", "conditions": "48 h plus 24 h resazurin", "endpoint": "EC50", "value": "3 ± 0.2 nM"}
{"SMILES": "N=C(N)NCCC[C@@H]1NC(=O)[C@H](CCCCNC(=O)CC[C@H](NC(=O)CCOCCOCCOCCOCCNC(=O)CN2CCN(CC(=O)O)CCN(CC(=O)O)CCN(CC(=O)O)CC2)C(=O)NCCCC[C@@H]2NC(=O)[C@@H](Cc3ccccc3)NC(=O)[C@H](CC(=O)O)NC(=O)CNC(=O)[C@H](CCCNC(=N)N)NC2=O)NC(=O)[C@@H](Cc2ccccc2)NC(=O)[C@H](CC(=O)O)NC(=O)CNC1=O [indium-111 labelled]", "test system": "athymic nude mice, female, U-87 MG glioma xenograft, bone", "conditions": "intravenous, 3 µCi, 72 h", "endpoint": "tissue uptake", "value": "0.43 ± 0.06 %ID/g"}
{"SMILES": "OC[C@H]1O[C@@H]([Se][Se][C@@H]2O[C@H](CO)[C@@H](O)[C@H](O)[C@H]2O)[C@H](O)[C@@H](O)[C@@H]1O", "target or system": "Trypanosoma brucei", "test": "parasite growth, flow cytometry", "conditions": "24 h, blood stage", "endpoint": "EC50", "value": "~5000 nM"}
{"SMILES": "CN[C@](C)(C[18F])C(=O)O", "target or system": "MDA-MB-468 tumour model", "test system": "host not given, pancreas", "conditions": "15 min, tumour-bearing", "endpoint": "tracer uptake", "value": "50 %ID/g"}
{"SMILES": "Nc1ncnc2c1c(Cl)cn2[C@@H]1O[C@H](CO)[C@@H](O)[C@H]1O", "target or system": "Trypanosoma congolense", "test": "parasite growth, resazurin", "conditions": "72 h", "endpoint": "EC50", "value": "860 nM"}
{"SMILES": "CCCCCCC(CC=CCCCCCCCC(=O)OCCOCn1cnc2c(=O)[nH]c(N)nc21)OC(=O)CCCCC1SCC2NC(=O)NC21 (stereo not shown)", "target or system": "herpes simplex virus 2", "test": "viral replication, plaque reduction", "test system": "HFF, MS", "endpoint": "EC50", "value": "270 nM"}
{"SMILES": "COc1ccc(NC(=O)N2CCCN3CCC(c4ccc(C#Cc5ccccc5)cc4)C3C2)cc1 (stereo not shown)", "target or system": "Toxoplasma gondii", "test": "parasite growth, luciferase reporter", "test system": "HFF, RH PheRS L497I mutant", "conditions": "72 h", "endpoint": "EC50", "value": "3980 nM"}
{"SMILES": "O=C1/C(=N\\NC(=S)NN=Cc2cccs2)c2ccccc2N1Cc1ccccc1", "target or system": "Sindbis virus", "test": "viral cytopathogenicity", "test system": "Vero", "endpoint": "EC50", "value": "> 20000 nM"}
{"SMILES": "CC(C)CC(O)(CC(C)C)c1cn(C(=O)N2CCCC2)nn1", "target or system": "mouse T-cells", "test": "N-terminal labeled proteins, N-terminal enrichment proteomics, measured: TMSB4X", "conditions": "1 nM, 6 h", "scale": "relative to: DMSO", "endpoint": "SILAC ratio", "value": "2.62 ± 0.12"}
{"SMILES": "CC(C)Oc1ncnc2c1c(Cl)cn2[C@@H]1O[C@H](CO)[C@@H](O)[C@H]1O", "target or system": "Trypanosoma congolense", "test": "parasite growth, resazurin", "test system": "6C3 diminazene-resistant", "conditions": "48 h plus 24 h resazurin", "endpoint": "EC50", "value": "3230 ± 360 nM"}
{"SMILES": "O=C1C[C@@H](c2ccc(O)cc2)Oc2cc(O)ccc21", "test system": "Sprague-Dawley rat, Freund's adjuvant arthritis", "conditions": "oral, 10 mg/kg, 0 h, with: aconitine 1 mg/kg", "endpoint": "hind paw volume", "value": "1.67 ± 0.04 mL"}
{"SMILES": "CCN(CC)Cc1cc(Nc2c(C3CCCC3)c(C)nc3cc(Cl)ccc23)ccc1O", "target or system": "West Nile virus", "test": "viral replication, Rluc reporter replicon", "test system": "Vero WNV replicon cells", "conditions": "24 h", "endpoint": "EC50", "value": "3310 ± 730 nM"}
{"SMILES": "CC[C@@H]1NC(=O)[C@H]([C@H](O)[C@H](C)C/C=C/CN(C)C)N(C)C(=O)[C@H](C(C)C)N(C)C(=O)[C@H](CC(C)C)N(C)C(=O)[C@H](CC(C)C)N(C)C(=O)[C@@H](C)NC(=O)[C@H](C)NC(=O)[C@H](CC(C)C)N(C)C(=O)[C@H](C(C)C)NC(=O)[C@H](CC(C)C)N(C)C(=O)CN(C)C1=O", "target or system": "Human coronavirus NL63", "test": "viral replication, inhibitor, qPCR", "test system": "Caco-2", "conditions": "48 h", "endpoint": "EC50", "value": "7900 nM"}
{"SMILES": "Cc1cc(O)c(=O)c(O)c(O)c1C(=O)c1ccc(-c2ccccc2)cc1", "target or system": "herpes simplex virus 2", "test": "viral replication", "endpoint": "EC50", "value": "~50 nM"}
{"SMILES": "COc1cccc(CNC(=O)c2cc(C(C)(C)C)nn2C)c1OC", "target or system": "human rhinovirus", "test": "viral replication", "test system": "H1-HeLa, HRV-16", "endpoint": "EC50", "value": "< 1000 nM"}
{"SMILES": "CC(C)[C@]12O[C@H]1[C@@H]1O[C@]13[C@]1(O[C@H]1C[C@H]1c4c(C(=O)c5ccccc5)oc(OC(=O)c5ccccc5)c4CC[C@@]13C)[C@@H]2O", "target or system": "MV4-11", "test": "cell viability, Alamar Blue", "conditions": "24 h", "endpoint": "IC50", "value": "74 nM"}
{"SMILES": "COc1ccc(S(=O)(=O)NCc2c[nH]nc2-c2cccs2)cc1", "target or system": "Plasmodium falciparum", "endpoint": "EC50", "value": "15600 nM"}
{"SMILES": "O=C(Cc1csc2nc(-c3ccc(Br)cc3)cn12)NN=C1CCCC1", "target or system": "Sindbis virus", "test": "viral cytopathicity, microscopy", "test system": "Vero", "endpoint": "EC50", "value": "> 100 µg/mL"}
{"SMILES": "CC/C=C\\C/C=C\\C/C=C\\C/C=C\\C/C=C\\C/C=C\\CCC(=O)Nc1ccn(C2OC(CO)C(O)C2(F)F)c(=O)n1 (stereo not shown)", "target or system": "CAKI-1", "test": "NCI60 screen", "endpoint": "CC50", "value": "34300 nM"}
{"SMILES": "N=C(N)NCCC[C@@H]1NC(=O)[C@H](CCCCNC(=O)CCOCCOCCOCCOCCNC(=O)CN2CCN(CC(=O)O)CCN(CC(=O)O)CCN(CC(=O)O)CC2)NC(=O)[C@@H](Cc2ccccc2)NC(=O)[C@H](CC(=O)O)NC(=O)CNC1=O [indium-111 labelled]", "test system": "female athymic nude mice, blood", "conditions": "intravenous, 3 µCi, 24 h, U-87 MG glioma xenograft", "endpoint": "tissue uptake", "value": "0.06 %ID/g"}
{"SMILES": "CC[C@@H]1NC(=O)[C@H]([C@H](O)[C@H](C)Cc2nc3ccc(C(=O)OC)cc3[nH]2)N(C)C(=O)[C@H](C(C)C)N(C)C(=O)[C@H](CC(C)C)N(C)C(=O)[C@H](CC(C)C)N(C)C(=O)[C@@H](C)NC(=O)[C@H](C)NC(=O)[C@H](CC(C)C)N(C)C(=O)[C@H](C(C)C)NC(=O)[C@H](CC(C)C)N(C)C(=O)CN(C)C1=O", "target or system": "Human coronavirus NL63", "test": "viral replication, inhibitor, qPCR", "test system": "Caco-2", "conditions": "48 h", "endpoint": "EC50", "value": "1100 nM"}
{"SMILES": "Nc1ncnc2c1c(F)cn2[C@@H]1O[C@H](CO)C[C@H]1O", "target or system": "Trypanosoma congolense", "test": "parasite growth, resazurin", "test system": "6C3 diminazene-resistant", "conditions": "48 h plus 24 h resazurin", "endpoint": "EC50", "value": "3.1 ± 0.3 nM"}
{"SMILES": "Cc1cn(C2CC(N(C)C)C(CO)O2)c(=O)[nH]c1=O (stereo not shown)", "target or system": "Sindbis virus", "test": "viral replication", "test system": "Vero", "endpoint": "EC50", "value": "> 370 nM"}
{"SMILES": "CC[C@H](C)C(=O)N1CCC(NC(=O)Nc2ccc(OC(F)(F)F)c(F)c2)CC1", "test system": "human, plasma", "conditions": "oral, 2 mg, single dose, healthy volunteers", "endpoint": "AUC(0-t)", "value": "258 ng·h/mL"}
{"SMILES": "CCCCCCCCCC(=O)OCC1OC(n2cc(C)c(=O)[nH]c2=O)CC1N(C)C (stereo not shown)", "target or system": "HIV-2", "test": "viral cytopathic effect, MTT", "test system": "MT-4, ROD", "endpoint": "EC50", "value": "> 150 nM"}
{"SMILES": "C#Cc1cn([C@@H]2O[C@H](CO)C[C@H]2O)c2ncnc(N)c12", "target or system": "Trypanosoma congolense", "test": "parasite growth, resazurin", "test system": "6C3 diminazene-resistant", "conditions": "48 h plus 24 h resazurin", "endpoint": "EC50", "value": "8 ± 2 nM"}
{"note": "Excerpt of the above:"}
{"SMILES": "COc1ccc(S(=O)(=O)NCc2c[nH]nc2-c2cccs2)cc1", "target or system": "Plasmodium falciparum", "endpoint": "EC50", "value": "15600 nM"}
{"SMILES": "CC[C@@H]1NC(=O)[C@H]([C@H](O)[C@H](C)Cc2nc3ccc(C(=O)OC)cc3[nH]2)N(C)C(=O)[C@H](C(C)C)N(C)C(=O)[C@H](CC(C)C)N(C)C(=O)[C@H](CC(C)C)N(C)C(=O)[C@@H](C)NC(=O)[C@H](C)NC(=O)[C@H](CC(C)C)N(C)C(=O)[C@H](C(C)C)NC(=O)[C@H](CC(C)C)N(C)C(=O)CN(C)C1=O", "target or system": "Human coronavirus NL63", "test": "viral replication, inhibitor, qPCR", "test system": "Caco-2", "conditions": "48 h", "endpoint": "EC50", "value": "1100 nM"}
{"SMILES": "CC[C@@H]1NC(=O)[C@H]([C@H](O)[C@H](C)C/C=C/CN(C)C)N(C)C(=O)[C@H](C(C)C)N(C)C(=O)[C@H](CC(C)C)N(C)C(=O)[C@H](CC(C)C)N(C)C(=O)[C@@H](C)NC(=O)[C@H](C)NC(=O)[C@H](CC(C)C)N(C)C(=O)[C@H](C(C)C)NC(=O)[C@H](CC(C)C)N(C)C(=O)CN(C)C1=O", "target or system": "Human coronavirus NL63", "test": "viral replication, inhibitor, qPCR", "test system": "Caco-2", "conditions": "48 h", "endpoint": "EC50", "value": "7900 nM"}
